Literature values that unrelated publications cite.
Each numbered part shows a few of the values that one paper quotes. ± gives the spread as reported.

Series 1 — effect on: peptide-MHC binding; form: peptide
Target: HLA class I histocompatibility antigen, B alpha chain, allele B*46:01 (Homo sapiens, UniProt P01889)
Sequence | IC50
KAFSPEVI | 1.36 µM
KTDEVVTL | 39.8 µM
FSLPAQLL | 1.31 µM

Single results of other studies
SMILES | target or system | method | species | dose | endpoint | value
COc1cc2c(Oc3ccc4[nH]c(C)cc4c3F)ccnc2cc1OCC1(N)CC1 | – | – | Beagle dog | – | minimum lethal dose | 67.5 mg/kg
Cc1ncc([N+](=O)[O-])n1CCO | Trichomonas gallinae | MTT | – | – | minimal lethal concentration | 25 µg/mL
NC(=O)c1ncn([C@@H]2O[C@H](CO)[C@@H](O)[C@H]2O)n1 | Influenza A virus H1N1 | – | – | – | EC50 | 20.1 ± 2.1 µM
CCCCCOc1ccc(-c2ccc(-c3ccc(C(=O)N[C@H]4C[C@@H](O)[C@@H](O)NC(=O)[C@@H]5[C@@H](O)[C@@H](C)CN5C(=O)[C@H]([C@@H](C)O)NC(=O)[C@H]([C@H](O)[C@@H](O)c5ccc(O)cc5)NC(=O)[C@@H]5C[C@@H](O)CN5C(=O)[C@H]([C@@H](C)O)NC4=O)cc3)cc2)cc1 | – | – | human renal impairment moderate | 50 mg single dose | AUC(0-inf) | 58700 ± 12300 ng·h/mL
COc1ccc(C[C@H]2NC[C@H](O)[C@H]2OC(C)=O)cc1 | Naegleria | – | – | – | IC50 | 4.7 µM

Excerpt of the above (series 1):
Sequence | IC50
KTDEVVTL | 39.8 µM
